Measured values of several laboratories.
Parts stem from different laboratories: compare values within a part only. Substitutions count along the parent as printed.

Set 1
Target: Histone acetyltransferase KAT6A, winged helix 1, GST fusion (KAT6A, Homo sapiens, UniProt Q92794, residues 1-85)
Method: protein binding microarray
Form: double-stranded DNA, one strand shown
Medium: in vitro
Concentration: not given
Notes: 8-mer, flanks averaged, mean of 2 arrays, mostly near background
Baseline: not given
Reading: higher = stronger binding
Residues (chain): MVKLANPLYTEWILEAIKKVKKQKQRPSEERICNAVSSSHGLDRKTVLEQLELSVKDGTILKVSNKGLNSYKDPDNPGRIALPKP
`AACCCTTG` has an E-score of 0.0432.
`GTATGCAA` gave an E-score of -0.148.
`CACTTGTA` gave an E-score of -0.158.
With `AACAGTAG` the E-score was -0.117.
`GTTAGTTA` gave an E-score of 0.0772.
With `ACAGCACA` the E-score was -0.0712.
With `CGCTTAAG` the E-score was 0.216.
`AACGGGAC` has an E-score of 0.207.
`ACACCCGG` gave an E-score of 0.254.
`ATTATGTA` has an E-score of 0.0454.
For `GTTGGTAA`, the E-score was 0.0183.
`AACTAAGC` has an E-score of -0.0183.
For `GAGCTCAC`, the E-score was 0.0415.
`ACAGAAGC` has an E-score of -0.0486.
With `ATGTGGAG` the E-score was -0.204.
`CCGGGCCG` has an E-score of 0.42.
`CCTACCAC` has an E-score of -0.0606.
`CCTCCTAG` has an E-score of -0.151.

Set 2
Target: Interferon regulatory factor 3, full length, phosphomimetic (IRF3, Homo sapiens, UniProt Q14653, residues 1-427, S386D/S396D/S398D/S402D/T404D/S405D)
Sequence of UniProt Q14653 (whole entry, unmodified, looked up): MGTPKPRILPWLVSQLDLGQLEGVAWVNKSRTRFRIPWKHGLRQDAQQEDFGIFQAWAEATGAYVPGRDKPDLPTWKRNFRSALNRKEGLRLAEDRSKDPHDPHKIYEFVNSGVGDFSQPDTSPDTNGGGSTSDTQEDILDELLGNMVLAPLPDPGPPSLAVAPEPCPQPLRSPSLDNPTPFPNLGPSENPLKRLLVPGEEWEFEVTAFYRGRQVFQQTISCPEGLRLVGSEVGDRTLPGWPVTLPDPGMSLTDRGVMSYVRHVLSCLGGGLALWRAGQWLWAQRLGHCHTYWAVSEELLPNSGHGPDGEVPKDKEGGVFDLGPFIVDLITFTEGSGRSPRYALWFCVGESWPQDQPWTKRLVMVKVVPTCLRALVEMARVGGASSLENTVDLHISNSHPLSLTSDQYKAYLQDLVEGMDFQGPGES
Method: protein-binding microarray
Form: double-stranded DNA, one strand shown
Medium: in vitro
Concentration: 2540 nM top
Notes: 60-bp whole probe
With: salmon DNA 0.4 mg/ml
Baseline: random background probes
Reading: higher = stronger binding
All sequences stand within: GCCTAGCAC … GTCTTGATTCGCTTGACGCTGCTG
`GACGGACCGGGTTTCGGGACGTGCTAG`: “fitted relative affinity” 1.39 z-score.
Under “fitted relative affinity”, `TCAACTCTCTACATGTGACTGTGCTAG` is recorded as 0.355 z-score.
Under “fitted relative affinity”, `GACGGTATCGCCACTGGGGACGTGCTA` is recorded as 0.406 z-score.
`TCAGGTTTCGGGTTTCGGTTAGTGCTA` — result for “fitted relative affinity”: 6.44 z-score.
`TTAAGACTGCTTATCCTTTAGTGCTAG`: “fitted relative affinity” -0.113 z-score.
`AGCATCTTCAAGACTCATAATGTGCTA` — result for “fitted relative affinity”: -0.502 z-score.
`GACGGACTGGACACTGGGGCCGTGCTA`: “fitted relative affinity” -0.824 z-score.
For `GAAGGACTGGACTATCGGGACGTGCTA`, “fitted relative affinity” read -0.642 z-score.
For `GACGATATCGGGTTTCGAGAAGTGCTA`, “fitted relative affinity” read 1.01 z-score.
For `GACTGTTTCCTTATCCTGACGTGCTAG`, “fitted relative affinity” read 7.12 z-score.
`TTAGATCTCAGGTTCGATTAGTGCTAG`: “fitted relative affinity” 0.365 z-score.
For `GACTATTTCGGGTTTCGAGACGTGCTA`, “fitted relative affinity” read 2.3 z-score.
For `GACGGACTGGGACTGGGGACGTGCTAG`, “fitted relative affinity” read -0.891 z-score.
`TTAGATTTCGGGACTGGATCAGTGCTA`: “fitted relative affinity” 1.43 z-score.
Under “fitted relative affinity”, `GACGGTGCCGGTTTCGGGACGTGCTAG` is recorded as 3.33 z-score.
`TTAGGTCTCCTTAACCTTTAGTGCTAG` — result for “fitted relative affinity”: 0.764 z-score.
For `TTAGGTATCGACTTTCAGTTAGTGCTA`, “fitted relative affinity” read 0.962 z-score.
`CATTTTATGGTATTTTTTTCGTGCTAG` — result for “fitted relative affinity”: 2.4 z-score.
For `TCCCCTCCGGGACCCGCCTCGTGCTAG`, “fitted relative affinity” read -0.189 z-score.
Under “fitted relative affinity”, `GACGGTATCGGGTTTCGGGAGGTGCTA` is recorded as 2.93 z-score.
`GACGGACTGTGACTGGGGACGTGCTAG` — result for “fitted relative affinity”: -0.724 z-score.
`TTCGGTTTCCTTTCCCTTTAGTGCTAG` — result for “fitted relative affinity”: 10.8 z-score.
`CCACTGCAAAAACATCCTGGGTGCTAG`: “fitted relative affinity” 0.437 z-score.

Set 3
Target: Ras GTPase-activating protein-binding protein 1, full length (G3BP1, Homo sapiens, UniProt Q13283)
Sequence of UniProt Q13283 (whole entry, looked up): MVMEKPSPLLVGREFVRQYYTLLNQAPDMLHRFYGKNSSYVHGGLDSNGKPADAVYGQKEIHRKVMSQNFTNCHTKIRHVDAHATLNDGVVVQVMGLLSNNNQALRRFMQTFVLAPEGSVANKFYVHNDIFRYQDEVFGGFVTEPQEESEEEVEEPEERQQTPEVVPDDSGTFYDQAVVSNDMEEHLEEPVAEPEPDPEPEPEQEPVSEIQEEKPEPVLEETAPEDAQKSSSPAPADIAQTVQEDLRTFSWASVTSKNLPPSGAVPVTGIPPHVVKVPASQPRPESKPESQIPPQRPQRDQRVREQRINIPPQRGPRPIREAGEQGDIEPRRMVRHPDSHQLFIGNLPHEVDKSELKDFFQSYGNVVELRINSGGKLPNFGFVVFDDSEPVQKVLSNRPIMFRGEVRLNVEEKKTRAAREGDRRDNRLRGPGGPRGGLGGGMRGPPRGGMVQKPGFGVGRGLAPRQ
Method: RNA Bind-n-Seq
Form: RNA
Medium: in vitro
Concentration: 200 nM
Notes: whole 134-nt RNA, ends assumed
With: 150 mM KCl
Baseline: input library
Reading: higher = stronger binding
All sequences stand within: GGGAGUUCUACAGUCCGACGAUC … UGGAAUUCUCGGGUGUCAAGG
For `UGGGAGGUGGAUUUUGUUUAUUUUUUUAGCUCAUUUCCAGGGGUAGGAAUUUUUUUUUAAUAUGUGUCAUGAAUAAAGUUGUUUUUGAAA`, the log2 enrichment was -0.289.
With `GCAGGAAGUAAAAACAAAUGGAAAUGCUUCGGAUAGUGGCAGGGGUGGGGGAAACUAAGGAAAGGGUGGGAUGGGAGUGGGUAAAGAGUU` the log2 enrichment was 0.856.
For `UGGCCCUGGUGGCAUGCGGGGAGGAAGAGGUGGCCUCAUGGAUCGUGGUGGUCCCGGUGCAAUGUUCAGAGGUGGCCGUGGUGGAGACAG`, the log2 enrichment was -0.0405.
With `CCUGUGCUACACAUCGUAUGUACCGAAUCGGGGUUUUUUUGGGGAAAAAAAGGGGAGGGGAAAGUAUUAUGUUACGCCGUUCGGAUCUGC` the log2 enrichment was 0.142.
`GUCCUGUGCUACACAUCGUAUGUACCGAAUCGGGGAAAAAGGGGUGGGGAAAAAGGGGAAAGUAUUAUGUUACGCCGUUCGGAUCUGCAC` has a log2 enrichment of 0.335.
For `CUGUGCUACACAUCGUAUGUACCGAAUCGGGGAAAAAAAGGAAAAAAAGGGAAAAAAAGGGGAAAGUAUUAUGUUACGCCGUUCGGAUCU`, the log2 enrichment was -0.617.
With `CUCAAGUCCUGUGCUACACAUCGUAUGUACCGAAUCGGAAAGGAAAGGAAAGGGAAAGUAUUAUGUUACGCCGUUCGGAUCUGCACUUCC` the log2 enrichment was -0.671.
For `ACCAUGCAGGUGGGCAUCUUUGGGAAGUGGGGCAAGGGGGGGAUGGGGAGGGGGGUAACACUUUGGGAACAGGUGGUCCCAGGUCGUUUC`, the log2 enrichment was 1.2.
With `CUGUGCUACACAUCGUAUGUACCGAAUCGGGCCCCCCCGGGCCCCCCCGGGGCCCCCCCGGGAAAGUAUUAUGUUACGCCGUUCGGAUCU` the log2 enrichment was -1.34.
For `CUCAAGUCCUGUGCUACACAUCGUAUGUACCGAAUCGGUGGAAAAAAAGGAGGAAAGUAUUAUGUUACGCCGUUCGGAUCUGCACUUCCA`, the log2 enrichment was -0.37.
`CAAAAUACCAAGGGAUUUAUAUGAGGAUGAGUUGGUGCCCCUUUUUGAGAAGGCCGGACCCAUUUGGGAUCUACGUCUUAUGAUGGAUCC` gave a log2 enrichment of -0.181.

Set 4
Target: Max-binding protein MNT, bHLH-zipper, MAX partner unstated (MNT, Homo sapiens, UniProt Q99583, residues 220-300)
Method: protein-binding microarray
Form: double-stranded DNA, one strand shown
Medium: in vitro
Concentration: not given
Notes: k-mer, scored over probes, only values ≥0.25
Reading: higher = stronger binding
Target sequence (chain): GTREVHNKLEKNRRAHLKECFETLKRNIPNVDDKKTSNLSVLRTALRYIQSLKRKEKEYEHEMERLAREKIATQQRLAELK
`CATGTCCG` has an E-score of 0.31.
`GTCATGCA` has an E-score of 0.261.
The E-score of `CACGTGGC` is reported as 0.498.
`ATGTGCTC` has an E-score of 0.391.
With `ACGCCGTG` the E-score was 0.259.
The E-score of `ACGCCCAC` is reported as 0.303.
`CGCACGAG` has an E-score of 0.437.
For `ATGCGTAC`, the E-score was 0.332.
The E-score of `CCACGCCC` is reported as 0.341.
With `ATGTGCAA` the E-score was 0.258.
`CGTGTTGA` gave an E-score of 0.295.
`GCACGACA` gave an E-score of 0.27.
`AGCACGCC` gave an E-score of 0.38.
For `CATGCGCG`, the E-score was 0.404.
For `CACTCATG`, the E-score was 0.25.
With `TCACCCCA` the E-score was 0.318.
`ACATGGCT` gave an E-score of 0.315.

Set 5
Target: CCNB2, cyclin fold, Cln2 fusion (human)
Method: yeast growth competition, sequencing
Medium: yeast
Notes: weak parent motif
Baseline: not given
Reading: higher = stronger binding
Parent: GMNC docking peptide (human); KNAKRNLSSEFAN; partner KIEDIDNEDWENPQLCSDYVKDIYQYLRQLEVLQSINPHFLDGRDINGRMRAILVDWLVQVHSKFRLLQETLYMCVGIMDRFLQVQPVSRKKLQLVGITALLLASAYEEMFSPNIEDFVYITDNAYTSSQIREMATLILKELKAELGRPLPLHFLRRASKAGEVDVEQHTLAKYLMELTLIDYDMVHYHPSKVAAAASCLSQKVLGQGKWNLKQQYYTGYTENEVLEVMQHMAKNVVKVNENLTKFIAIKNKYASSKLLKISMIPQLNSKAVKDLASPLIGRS
Under “normalised enrichment score”, `F11I` is recorded as 0.0589.
`S9K`: “normalised enrichment score” 0.318.
For `R5T`, “normalised enrichment score” read 0.336.
`L7E`: “normalised enrichment score” 0.51.
`E10Y` — result for “normalised enrichment score”: -0.33.
`R5S`: “normalised enrichment score” 0.668.
`K4P`: “normalised enrichment score” 0.258.
`F11K` — result for “normalised enrichment score”: 0.236.
Under “normalised enrichment score”, `L7K` is recorded as 0.699.
Under “normalised enrichment score”, `A3H` is recorded as 0.404.
Under “normalised enrichment score”, `R5K` is recorded as 0.301.
Under “normalised enrichment score”, `S9Y` is recorded as 0.39.
Under “normalised enrichment score”, `A12N` is recorded as 0.658.
`E10M` — result for “normalised enrichment score”: 0.464.
`N2R`: “normalised enrichment score” 0.691.
`R5P` — result for “normalised enrichment score”: -0.403.
`A3M` — result for “normalised enrichment score”: 0.444.
`E10G` — result for “normalised enrichment score”: 0.47.
`L7R` — result for “normalised enrichment score”: 0.305.
Under “normalised enrichment score”, `N6P` is recorded as -0.0894.
For `R5H`, “normalised enrichment score” read 0.184.
Under “normalised enrichment score”, `R5A` is recorded as 0.301.
`S8I`: “normalised enrichment score” 0.997.
`E10A`: “normalised enrichment score” 0.244.

Set 6
Target: Sal-like protein 4, full length isoform B (SALL4, Homo sapiens, UniProt Q9UJQ4-2, residues 1-616)
Method: universal PBM
Form: double-stranded DNA, one strand shown
Medium: in vitro
Concentration: not given
Notes: 8-mer, flanks averaged, mean of replicates
Reading: higher = stronger binding
Residues (chain): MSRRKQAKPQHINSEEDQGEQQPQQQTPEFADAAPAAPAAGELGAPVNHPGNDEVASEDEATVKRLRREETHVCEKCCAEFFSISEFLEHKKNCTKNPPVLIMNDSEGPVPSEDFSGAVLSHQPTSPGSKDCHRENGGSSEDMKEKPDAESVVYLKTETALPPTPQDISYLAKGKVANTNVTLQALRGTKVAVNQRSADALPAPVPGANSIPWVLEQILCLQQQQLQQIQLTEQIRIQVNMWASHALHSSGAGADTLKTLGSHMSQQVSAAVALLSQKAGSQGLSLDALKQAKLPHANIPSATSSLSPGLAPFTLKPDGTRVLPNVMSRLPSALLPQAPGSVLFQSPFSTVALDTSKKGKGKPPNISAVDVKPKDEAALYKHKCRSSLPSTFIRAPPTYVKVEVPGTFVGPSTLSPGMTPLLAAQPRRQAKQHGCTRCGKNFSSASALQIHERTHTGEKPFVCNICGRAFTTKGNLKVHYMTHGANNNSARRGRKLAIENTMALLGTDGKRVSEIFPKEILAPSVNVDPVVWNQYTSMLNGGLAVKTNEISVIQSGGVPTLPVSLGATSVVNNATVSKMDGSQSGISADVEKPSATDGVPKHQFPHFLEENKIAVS
`CTAGAGAC` has an E-score of -0.136.
The E-score of `GCCCGCAA` is reported as -0.152.
The E-score of `CCCATAAC` is reported as 0.138.
With `CGTATGAA` the E-score was 0.177.
`ACACGACA` has an E-score of 0.126.
The E-score of `GACAAAAC` is reported as 0.0493.
`GTTGGGAA` gave an E-score of -0.121.
The E-score of `CACGGGGG` is reported as -0.286.
The E-score of `AAGACTAC` is reported as 0.169.
For `TATCTCGA`, the E-score was 0.198.
The E-score of `CGGACAAG` is reported as -0.151.
`GATTCAAC` has an E-score of -0.212.
`ATGAAAGA` gave an E-score of 0.195.
The E-score of `TACACCGA` is reported as -0.159.
`AAAGTTGC` has an E-score of -0.0815.
The E-score of `AAATCTCC` is reported as -0.186.
For `AACCAACT`, the E-score was -0.00749.
`AACGCGAA` has an E-score of -0.0633.
The E-score of `ATGCGGCA` is reported as -0.17.
For `GGAATCGA`, the E-score was -0.162.
The E-score of `ATTCAGCG` is reported as -0.0941.
With `CGTATACG` the E-score was 0.148.
